Experimental data of several laboratories.
Each line is one published result; not all experiments were run side by side. “And” joins repeats or separate records; there may be more than shown.
Target: Serine/threonine-protein kinase Nek7 (NEK7, Homo sapiens, UniProt Q8TDX7)

C=CC(=O)N1CCCC(n2c(=O)c3ncccc3n(Cc3ccc(Oc4ccccc4)cc3)c2=O)C1 (stereo not shown)
remaining binding (cell-free assay, competition with immobilised ligand; 1 µM): 100%

COc1ccc(NC(=O)Nc2ccc3c(c2)C(=O)N(C(C)CO)CC(C)C(CN(C)Cc2ccc4c(c2)OCO4)O3)cc1 (stereo not shown)
remaining activity (kinase activity, KinaseProfiler; 0.03 µM, species human; baseline: control): 109%

Nc1ncc2c(n1)-c1c([nH]c3ccc(C4=CCOCC4)cc13)CCC2
remaining binding (binding, competition with immobilised ligand; 1 µM): 100%

CNC(=O)C[C@H](Cc1ccc(C#N)cc1)NC(=O)c1cc(-c2ccc(CN[C@H](C)c3ccc(C)cc3)o2)ccc1Cl
activity vs control (enzyme activity, inhibitor; 1 µM): 96%

C=CC(=O)N1CCc2ccc(-n3c(=O)ccc4cnc5ccc(-c6cnn(C)c6)cc5c43)cc21
remaining binding (KINOMEscan; 1 µM; baseline: DMSO control): 100%

CCN1CCN(Cc2ccc(C(=O)Nc3ccc(C)c(NCc4cnc5[nH]ccc5c4OC)c3)cc2C(F)(F)F)CC1
remaining binding (binding, competition with immobilised ligand; 1 µM): 94%

CC(C)=CC1OC(C)(C)C2C=C3C(=O)C(Cl)=CC(O)C3C3C(O)C4OC4C(=O)C132 (stereo not shown)
remaining binding (cell-free assay, competition with immobilised ligand; 10 µM): 90%

NC(=O)C[C@H]1CCc2sc3ncnc(O[C@H]4CC[C@H](N5CCOCC5)CC4)c3c21
inhibition (enzyme activity, inhibitor; 10 µM): 6%

Cc1nc2c(F)cc(-c3nc(Nc4ccc(CNC(=O)CCCCCCC(=O)NO)cc4)ncc3F)cc2n1C(C)C
inhibition (enzyme activity, inhibitor; 1 µM): 24%

COc1c(Cl)cccc1Nc1c(-c2ccncc2C#C[C@@]2(C)CCCN2C(=O)/C=C/CN(C)C)[nH]c2c1C(=O)NCC2
remaining binding (binding, competition with immobilised ligand; 3 µM): 95%

CNC1C[S+]2CC[S+]3CC[S+](C1)[Ru-4]321([N]=C=S)[n]2c3ccc(OC)cc3c3c4c(c5cc(F)c[n+]1c5c32)C(=O)NC4=O (stereo not shown)
remaining binding (KinomeScan; 0.1 µM; baseline: untreated): 86%

Nc1ncc(-c2cc(-c3cnn(CC(F)(F)F)c3)ncc2F)nc1C(=O)NC1CNCC(F)C1 (stereo not shown)
remaining activity (enzyme activity; 1 µM; baseline: DMSO control): 102%

Cc1cccc(O[C@H]2CCC[C@@H](C(C)CNCc3ccncc3)C2)c1 (relative stereo)
inhibition (enzyme activity, inhibitor; 1 µM): 3%

C=CC(=O)Nc1cccc(-c2cnc3[nH]cc(C(=O)NC(C)(C)C)c3n2)c1
inhibition (kinase activity; 0.1 µM): 3% and 1%

COc1cc(Nc2nccc(-c3cnn4nc(OC)ccc34)n2)cc(C(F)(F)F)c1
remaining binding (binding, competition with immobilised ligand; 1 µM): 40%

COc1c(OCCCN2CCOCC2)ccc2c1N=C(NC(=O)c1cnc(N)nc1)N1CCN=C21
remaining activity (kinase activity, inhibitor; 1 µM; baseline: untreated control): 112%

Excerpt of the above:
Cc1nc2c(F)cc(-c3nc(Nc4ccc(CNC(=O)CCCCCCC(=O)NO)cc4)ncc3F)cc2n1C(C)C
inhibition (enzyme activity, inhibitor; 1 µM): 24%

C=CC(=O)N1CCc2ccc(-n3c(=O)ccc4cnc5ccc(-c6cnn(C)c6)cc5c43)cc21
remaining binding (KINOMEscan; 1 µM; baseline: DMSO control): 100%
